Results of several laboratories.
Compare with care: the assays were run in different laboratories. Numbers after ± are the reported error.
Target: Cytochrome P450 3A4 (CYP3A4, Homo sapiens, UniProt P08684)
Chain of UniProt P08684 (whole entry, looked up): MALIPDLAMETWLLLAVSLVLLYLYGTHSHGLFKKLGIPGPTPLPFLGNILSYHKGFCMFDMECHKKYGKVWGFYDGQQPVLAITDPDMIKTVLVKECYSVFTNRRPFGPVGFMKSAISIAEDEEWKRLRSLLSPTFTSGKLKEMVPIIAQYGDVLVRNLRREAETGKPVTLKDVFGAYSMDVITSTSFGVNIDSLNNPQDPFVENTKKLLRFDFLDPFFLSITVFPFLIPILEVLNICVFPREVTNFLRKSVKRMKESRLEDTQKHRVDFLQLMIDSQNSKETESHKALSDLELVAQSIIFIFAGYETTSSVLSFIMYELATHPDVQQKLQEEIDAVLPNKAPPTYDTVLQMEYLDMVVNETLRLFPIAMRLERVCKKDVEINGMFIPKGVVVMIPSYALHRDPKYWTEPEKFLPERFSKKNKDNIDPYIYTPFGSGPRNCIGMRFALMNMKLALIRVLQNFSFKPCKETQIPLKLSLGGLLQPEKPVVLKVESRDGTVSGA

| Structure (SMILES) | test | system | setting | how to read | measurement | result |
| --- | --- | --- | --- | --- | --- | --- |
| Cc1ncc2n1-c1ccc(Cl)cc1C(c1ccccc1F)=NC2O (centres unmarked) |  | human, plasma | 2 mg, alone, arithmetic mean |  | Cmax | 0.434 ng/mL |
| O=C(Nc1ccc(N2CCC3(CCC3)CC2)c(C(F)(F)F)c1)c1ccc(C(=O)N2C[C@@H]3C[C@H]2CO3)nc1 |  |  | 10 µM, 20 (unit not given) |  | inhibition | 0% |
| CSc1ccccc1C(=O)NCCn1cc(C(=O)NCc2cccc(C)n2)c(=O)c2cc3c(cc21)OC(F)(F)O3 | enzyme activity, inhibitor | human liver microsomes | 20 min, 30 min NADPH preincubation, with: midazolam 5 µM |  | IC50 | 47.9 µM |
| Cc1ncc2n1-c1ccc(Cl)cc1C(c1ccccc1F)=NC2 |  | human, plasma | oral, 2 mg, day 1, alone, geometric mean |  | CL/F | 96.5 L/h |
| CC(C)CC(=O)OC[C@H]1O[C@@](C#N)(c2ccc3c(N)ncnn23)[C@H](O)[C@@H]1O | metabolic stability | recombinant enzyme | 1 µM |  | half-life | 2.18 ± 0.0307 min |
| CC(=O)c1c(C)c2cnc(Nc3ccc(C4CCN(CCS(C)(=O)=O)CC4)cn3)nc2n(C2CCCC2)c1=O | substrate | recombinant enzyme | time not given | relative to: initial | remaining compound | 21.8% |
| CCC[C@@](N)(CO)CCc1ccc(OCCCCCC(C)C)cc1 | enzyme activity, inhibitor |  | with: testosterone |  | IC50 | 17.6 µM |
| O=c1[nH]ncn1-c1ccc(N2CCN(c3ccc(OCC4COC(Cn5cncn5)(c5ccc(Cl)cc5Cl)O4)cc3)CC2)cc1 (centres unmarked) | inhibitor | human liver microsomes | with: midazolam |  | IC50 | 0.0189 µM |
| CSc1ccccc1C(=O)NCCn1cc(C(=O)NCc2cccc(C)n2)c(=O)c2cc3c(cc21)OCO3 | enzyme activity, inhibitor | human liver microsomes | 20 min, no NADPH preincubation, with: midazolam 5 µM |  | IC50 | 47.5 µM |
| CCC[S+]([O-])c1ccc2[nH]c(NC(=O)OC)nc2c1 (centres unmarked) | inhibitor |  | 10 µM, pH 7.4 |  | inhibition | 5% |
| CNCCN1C(=O)[C@H](OC(C)=O)[C@H](c2ccc(OC)cc2)Sc2ccccc21 | inactivator |  |  |  | kinact/KI | 550 ± 117 M⁻¹ s⁻¹ |

For quick reference, copied from above:
| Structure (SMILES) | test | system | setting | how to read | measurement | result |
| --- | --- | --- | --- | --- | --- | --- |
| CCC[S+]([O-])c1ccc2[nH]c(NC(=O)OC)nc2c1 (centres unmarked) | inhibitor |  | 10 µM, pH 7.4 |  | inhibition | 5% |
| CNCCN1C(=O)[C@H](OC(C)=O)[C@H](c2ccc(OC)cc2)Sc2ccccc21 | inactivator |  |  |  | kinact/KI | 550 ± 117 M⁻¹ s⁻¹ |
